Measurements of several laboratories.
A part holds a random share of what one study measured.

Set 1 — technique: universal PBM; form: double-stranded DNA, one strand shown; matrix: in vitro; tested at: 600 nM; reading: higher = stronger binding; measurement: E-score
Target: Sal-like protein 4, full length isoform A (SALL4, Homo sapiens, UniProt Q9UJQ4, residues 1-1053)
Chain of UniProt Q9UJQ4 (whole entry, looked up): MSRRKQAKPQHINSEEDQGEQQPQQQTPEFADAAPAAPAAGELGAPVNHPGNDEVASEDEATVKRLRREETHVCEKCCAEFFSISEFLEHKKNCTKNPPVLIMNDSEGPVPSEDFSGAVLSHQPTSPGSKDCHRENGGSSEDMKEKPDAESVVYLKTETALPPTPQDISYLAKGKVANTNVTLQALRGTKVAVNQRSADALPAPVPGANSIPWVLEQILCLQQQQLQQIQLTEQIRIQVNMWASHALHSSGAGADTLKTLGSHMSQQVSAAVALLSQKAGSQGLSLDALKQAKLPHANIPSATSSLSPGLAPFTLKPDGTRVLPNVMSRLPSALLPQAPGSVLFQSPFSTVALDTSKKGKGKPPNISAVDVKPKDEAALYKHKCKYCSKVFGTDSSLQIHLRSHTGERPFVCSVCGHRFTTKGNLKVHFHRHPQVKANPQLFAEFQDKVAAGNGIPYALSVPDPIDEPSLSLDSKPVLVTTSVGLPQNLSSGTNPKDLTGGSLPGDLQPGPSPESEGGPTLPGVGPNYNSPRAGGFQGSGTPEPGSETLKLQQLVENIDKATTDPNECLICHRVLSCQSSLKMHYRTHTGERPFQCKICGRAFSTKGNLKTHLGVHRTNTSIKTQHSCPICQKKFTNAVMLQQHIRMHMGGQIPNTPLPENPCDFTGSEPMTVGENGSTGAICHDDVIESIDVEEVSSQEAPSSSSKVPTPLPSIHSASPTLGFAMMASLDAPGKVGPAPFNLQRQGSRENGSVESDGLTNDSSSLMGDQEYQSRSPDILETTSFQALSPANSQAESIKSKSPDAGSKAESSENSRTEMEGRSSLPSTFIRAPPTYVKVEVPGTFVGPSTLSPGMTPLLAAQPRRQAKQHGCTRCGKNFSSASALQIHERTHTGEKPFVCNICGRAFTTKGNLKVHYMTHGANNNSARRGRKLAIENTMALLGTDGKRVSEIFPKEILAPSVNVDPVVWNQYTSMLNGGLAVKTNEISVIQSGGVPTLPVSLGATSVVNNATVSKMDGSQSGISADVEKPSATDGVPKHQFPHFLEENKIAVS
Notes: 8-mer, flanks averaged, mean of replicates
Oligonucleotide = CCTTTTTA; value = 0.136
Oligonucleotide = CTTGCCCC; value = -0.284
Oligonucleotide = AAGTGGTA; value = 0.0133
Oligonucleotide = GGGTTTTA; value = 0.00575

Set 2 — technique: protein binding microarray; form: double-stranded DNA, one strand shown; matrix: in vitro; tested at: not given; baseline: not given; reading: higher = stronger binding; measurement: E-score
Target: Histone acetyltransferase KAT6A, winged helix 1, GST fusion (KAT6A, Homo sapiens, UniProt Q92794, residues 1-85)
Notes: 8-mer, flanks averaged, mean of 2 arrays, mostly near background
Construct (chain): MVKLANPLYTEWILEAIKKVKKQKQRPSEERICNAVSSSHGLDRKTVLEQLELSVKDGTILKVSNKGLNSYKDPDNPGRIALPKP
Oligonucleotide = TGAGAAAA; value = -0.186
Oligonucleotide = ATTAATAG; value = -0.126
Oligonucleotide = AGCGTCGG; value = 0.442
Oligonucleotide = ACTCGAAC; value = -0.167

Set 3 — technique: aptamer microarray, sandwich; form: DNA with 2'F-ANA; matrix: in vitro; tested at: 200 nM; added: Cy3 exosite-II aptamer, 400 nM; reading: higher = stronger binding; measurement: mean fluorescence intensity
Target: Prothrombin, mature alpha-thrombin (F2, Homo sapiens, UniProt P00734)
Notes: whole 15-mer aptamer, many near background
Oligonucleotide = GGTTGGTGTGGTTGG (2'F-ANA at 3 4 6 7 10 13 15); value = 223 a.u.
Oligonucleotide = GGTTGGTGTGGTTGG (2'F-ANA at 1 2 8 11 12 15); value = 316 a.u.
Oligonucleotide = GGTTGGTGTGGTTGG (2'F-ANA at 7 9 15); value = 544 a.u.
Oligonucleotide = GGTTGGTGTGGTTGG (2'F-ANA at 1 5 6 7 10 12 15); value = 47.2 a.u.

Other studies, line by line
Molecule = PhoQ, residues 284 288 289 292 302 303 SVHLDV; target = PhoP, residues 12 14 15 18 19 NQCAL (Escherichia coli, UniProt P23836); test = Sort-seq, measured: YFP reporter; test system = E. coli; conditions = PhoQ-PhoP variant library, added: 10 µM Mg2+; how to read = baseline: high Mg2+ state, higher = stronger signaling; measurement = fold induction; value = 18.3

A few entries again (set 3):
Oligonucleotide = GGTTGGTGTGGTTGG (2'F-ANA at 3 4 6 7 10 13 15); value = 223 a.u.
